Published values from different studies.
Protocols differ between the studies behind these lines.
Cell line: K562

Cc1[nH][n+]([Pt-2]([Cl])([n+]2[nH]c(C)c(CSCc3ccccc3)c2C)[n+]2[nH]c(C)c(CSCc3ccccc3)c2C)c(C)c1CSCc1ccccc1.[Cl-] — selectivity index (cytotoxicity; baseline: IC50 HEK293 over IC50 K562): 1.6
Cc1ccc([N+](=O)[O-])cc1S(=O)(=O)N(C)/N=C/c1cnc2ccc(Br)cn12 — IC50 (cell growth or viability): 0.416 µM
O=C(Nc1nnc2c1c(-c1ccc(Cl)cc1)nc1sc(=Cc3ccco3)c(=O)n12)c1ccccc1 (mixture of isomers) — cell growth (SRB; 10 µM, NCI60 single-dose screen; baseline: untreated): 26.5%
N#Cc1c(N)nc2c(c1-c1ccc(F)cc1)Cc1cc(O)ccc1-2 — IC50 (cell viability, CellTiter-Glo; no inhibition at 100 µM): > 100 µM
Cc1cc(C)cc(NC(=O)N(Cc2ccc(C(=O)NO)cc2)OCc2ccccc2)c1 — IC50 (cell growth or viability, ATP luminescence; 72 h): 5.79 µM
COc1cc(/C=C/C(=O)/C=C(O)/C=C/c2ccc(OCC(=O)N3CCOCCOCCOCC3)c(OC)c2)ccc1OCC(=O)N1CCOCCOCCOCC1 — inhibition (cell growth or viability, SRB; 25 µM): 78%
CC(C)c1ccc(N(C)c2ccc3c(c2)OCC[C@H]3CNc2cnccc2C(=O)O)cc1 — IC50 (cell growth or viability, ATP luminescence; 7 days): 0.00456 µM
N#Cc1c(N)nc2c(c1-c1ccc(CO)o1)Cc1cc(O)ccc1-2 — IC50 (cell growth or viability, ATP luminescence): 25.1 µM
COc1ccc(O)cc1-c1c[nH]c2ncc(-c3cncc(C(=O)N(C)C)c3)cc12 — CRKL and STAT5 phosphorylation (inhibitor, Western blot; concentration not given, 6 h, hypoxia): inhibited
CN(C)CCN1CCN(c2ccc3nc(-c4ccc5nc(-c6ccc(C(F)(F)F)cc6)[nH]c5c4)[nH]c3c2)CC1 — growth percent (SRB; 10 µM, 48 h): 11.6%
C=CS(=O)(=O)c1ccc(OC)c(-c2c[nH]c3ncc(-c4cncc(C(=O)N(C)C)c4)cc23)c1 — GI50 (cell growth or viability, MTT; 72 h): > 1 µM
CN1CCC(N[C@@H]2CCc3[nH]c4c(C(N)=O)ccc(-c5ccccc5Cl)c4c3C2)CC1 — IC50 (cell growth or viability): 0.0241 µM
N#Cc1c(N)nc2c(c1-c1ccc(CO)o1)Cc1cccc(O)c1-2 — IC50 (cell viability, CellTiter-Glo; no inhibition at 100 µM): > 100 µM
Cn1ncc(-c2ccc3c(=O)[nH]nc(CN)c3c2)c1-c1c(F)c(Cl)cc(OC2CC2)c1C#N — IC50 (cell viability, inhibitor, CellTiter-Glo; 120 h, baseline-subtracted): 4.38 µM
C/C1=C/[C@H](C)C[C@H](C)OC(=O)C[C@H](c2ccc(O)cc2)NC(=O)[C@@H](Cc2ccc(O)cc2)N(C)C(=O)[C@H](C)NC(=O)[C@@H](C)C1 — GI50 (cell growth or viability): 29.5 µg/mL
C=C(NC(=O)c1csc(-c2ccc(NC(=O)CCCCCBr)cc2)n1)C(=O)NC(=C)C(=O)OC — EC50 (cell growth or viability): 1.2 µM
Cc1[nH][n+]([Pd-2]([Cl])([Cl])[n+]2[nH]c(C)c(CSCc3ccccc3)c2C)c(C)c1CSCc1ccccc1 — selectivity index (cytotoxicity; baseline: IC50 HEK293 over IC50 K562): 1.8
COc1ccccc1-c1c[nH]c2ncc(-c3cncc(C(=O)N(C)C)c3)cc12 — GI50 (cell growth or viability, MTT; 72 h): 0.11 µM
CCCC(CCC)C(=O)OCc1cn(-c2cc3ccccc3oc2=O)nn1 — growth percentage (NCI60 single-dose screen; 10 µM): 93.3%
CCN(C(=O)c1cc(F)ccc1Oc1nncnc1N1CCC2(C1)CN([C@H](CCCN(C)CCOC)C(C)C)C2)C(C)C — GI50 (cell growth or viability; 7 days): > 10 µM
NC(=O)c1ccc(-c2ccccc2Cl)c2c3c([nH]c12)CCC(N)C3 (stereo not shown) — IC50 (cell growth or viability; 96 h): 0.0265 µM
C/C1=C/[C@H](C)C[C@H](C)OC(=O)C[C@H](c2ccc(O)cc2)NC(=O)[C@@H](Cc2ccc(O)c(I)c2)N(C)C(=O)[C@H](C)NC(=O)[C@@H](C)C1 — GI50 (cell growth or viability): 10.6 µg/mL
